Results pooled from the literature.
A part holds a random share of what one study measured.

Series 1
Target: Centromere-binding protein 1, full length, His-tagged (CBF1, Saccharomyces cerevisiae, UniProt P17106, residues 1-351)
Sequence of UniProt P17106 (whole entry, looked up): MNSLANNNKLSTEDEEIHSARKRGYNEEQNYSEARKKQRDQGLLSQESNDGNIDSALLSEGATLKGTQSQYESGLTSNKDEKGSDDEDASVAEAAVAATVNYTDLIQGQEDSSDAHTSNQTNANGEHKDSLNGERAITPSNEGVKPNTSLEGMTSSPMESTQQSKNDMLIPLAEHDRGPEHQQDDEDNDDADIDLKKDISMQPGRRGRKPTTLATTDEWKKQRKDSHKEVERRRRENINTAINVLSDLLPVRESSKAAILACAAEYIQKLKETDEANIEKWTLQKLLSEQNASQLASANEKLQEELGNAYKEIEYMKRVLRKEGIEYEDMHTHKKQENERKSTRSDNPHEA
Method: competition protein-binding microarray
Molecule type: double-stranded DNA, one strand shown
Medium: in vitro
Concentration: 2 µM
Notes: whole 60-bp probe, lowest competitor level
Together with: Pho4 competitor, 0.05 µM
Direction: higher = stronger binding
Constant ends, left off below: … GTCTTGATTCGCTTGACGCTGCTG
| Oligonucleotide | fluorescence intensity [a.u.] |
| --- | --- |
| TAAGAAAATACCGGTCATATGACAACAGAGACAAGA | 669 |
| AAATTACTAAGTTGAAAGGTGGGTGACGCCGTATGA | 67.8 |
| CGGGCGTATTGAGCCCTCGTGCTGTCTGGATGCACC | 102 |
| TTTTCTTGGTCAAGGTCTGTGATATCCCCTTCCGGT | 59.7 |
| GCATTGCATTGCTGGCACGTTTTTGTGCAGCATGAA | 221 |
| TCTGATAGTTCTACCATCGTGGGTAACAACGTATGG | 84.2 |
| AATTTCGGAGAATCTCACATGCCACTGAAGATTAAA | 89.8 |
| AAAGCGGTAATTTTTCACGTGGGCTCACATATCTAT | 862 |
| TGACAGATGCCATGGCGCTACTGTTGTAGTATTGTA | 82.6 |
| CTTCTGTAAATTTGCCTTGTGGGTGGACGCGCCCCG | 84.4 |
| CTTCTGTAAATTTTTCACGTGATTTGACGCGCCCCG | 4110 |
| AAAGCGGTAATTTGGGGTGTGGGTGCAGATATCTAT | 80.5 |
| ATATCTCATGTAACAAACGTGAAAAAAGCGATGATT | 137 |
| GAAAGTACGAATTACCACGTCACTGTCATTTAGGTT | 86.6 |
| GCTGCTGCTGCGAGTCACGGGCTCTGTTTACTACTA | 272 |

Series 2
Target: Histone acetyltransferase KAT6A, winged helix 1, GST fusion (KAT6A, Homo sapiens, UniProt Q92794, residues 1-85)
Method: protein binding microarray
Molecule type: double-stranded DNA, one strand shown
Medium: in vitro
Concentration: not given
Notes: 8-mer, flanks averaged, mean of 2 arrays, mostly near background
Relative to: not given
Direction: higher = stronger binding
Target sequence (chain): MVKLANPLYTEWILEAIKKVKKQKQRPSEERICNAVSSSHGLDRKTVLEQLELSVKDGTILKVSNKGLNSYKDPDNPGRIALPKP
| Oligonucleotide | E-score |
| --- | --- |
| AGACGTTA | -0.112 |
| AACCATAG | -0.0136 |
| CTAAAAGA | -0.249 |
| CATGTCCG | 0.21 |
| CTGCCGTA | 0.303 |
| ATAACGGA | 0.0801 |
| ATCCAACC | -0.138 |
| CCGTGGGA | 0.114 |
| CGGATATA | 0.147 |
| GTAACGGA | 0.157 |
| AGCGTAAA | 0.0998 |
| CCTTTTAC | -0.0874 |
| GCACTACC | 0.0764 |
| ATGATTTG | -0.121 |
| GGCGCCAC | 0.322 |
| GGCTTCTA | 0.09 |
| CTACGAAC | -0.132 |
| CTTGCTGA | -0.224 |
| CGAAGCGC | 0.335 |

Series 3
Target: Fragile X messenger ribonucleoprotein 1, C-terminal low-complexity region (Fmr1, Mus musculus, UniProt P35922)
Method: RNA Bind-n-Seq
Molecule type: RNA
Medium: in vitro
Concentration: 200 nM
Notes: whole 134-nt RNA, ends assumed
Together with: 150 mM KCl
Relative to: input library
Direction: higher = stronger binding
Constant ends, left off below: GGGAGUUCUACAGUCCGACGAUC … UGGAAUUCUCGGGUGUCAAGG
| Oligonucleotide | log2 enrichment |
| --- | --- |
| GUCCUGUGCUACACAUCGUAUGUACCGAAUCGGAAAAAAGGGAAAAAAGGAAAAAAGGAAAGUAUUAUGUUACGCCGUUCGGAUCUGCAC | -0.659 |
| UCAAGUCCUGUGCUACACAUCGUAUGUACCGAAUCGGGAGGGUGGGAAAAAGGGAAAGUAUUAUGUUACGCCGUUCGGAUCUGCACUUCC | 1.04 |
| ACCAUGCAGGUGGGCAAAAUUGGGAAGUGGGGCAAGGGGGGGAUAGGGAGGGGGGUAACACUUUGGGAACAGGUGGUCCCAGGUCGUUUC | 0.543 |
| CAAGUCCUGUGCUACACAUCGUAUGUACCGAAUCGGAAAGGAAAAAGGUUUUUGGAAAGUAUUAUGUUACGCCGUUCGGAUCUGCACUUC | -0.976 |
| CCUGUGCUACACAUCGUAUGUACCGAAUCGGGGAAAAAAGGGGAAAAAAGGGAAAAAAGGAAAGUAUUAUGUUACGCCGUUCGGAUCUGC | -0.365 |
| UCAAGUCCUGUGCUACACAUCGUAUGUACCGAAUCGGAAAGGAAAGGUUUUUGGAAAGUAUUAUGUUACGCCGUUCGGAUCUGCACUUCC | -0.884 |
| UGGCCCUGGUGGCAUCCGGGGAGGAAGAGGUGGCCUCAUGGAUCGUGGUGGUCCCGGUGGAAUGUUCAGAGGUGGCCGUGGUGGAGACAG | 0.178 |
| UCCUGUGCUACACAUCGUAUGUACCGAAUCGGGGUUUGGGGAAAAAGGGGUUUUUGGGGAAAGUAUUAUGUUACGCCGUUCGGAUCUGCA | 0.76 |
| CAAGUCCUGUGCUACACAUCGUAUGUACCGAAUCGGUUUUUGGAGGAAAAAAAGGAAAGUAUUAUGUUACGCCGUUCGGAUCUGCACUUC | -0.526 |
| ACCAUGCAGGUGAGCAUCUUUGGGAAGUGGGGCAAGGGGGGGAUAGGGAGGGGGGUAACACUUUGGGAACAGGUGGUCCCAGGUCGUUUC | 0.79 |
| UGGGAGGUGGAUUUUGUUUAUUUUUUUAGCUCAUUUCCAGGGGUGGGAAUUUUUUUUUAAUAUGUGUCAUGAAUAAAGUUGUUUUAGAAA | 0.304 |
| CAAGUCCUGUGCUACACAUCGUAUGUACCGAAUCGUGUGUGUGUGUGUGUGUGUGUAAAGUAUUAUGUUACGCCGUUCGGAUCUGCACUU | 0.392 |
| UCCUGUGCUACACAUCGUAUGUACCGAAUCGGCCCCCCGGGGCCCCCCGGCCCCCCGGGAAAGUAUUAUGUUACGCCGUUCGGAUCUGCA | -0.711 |
| UAACUUUAUAGGAGGAUCUGAUGGAUAUGGCAGUGGACGUGGAUUUGGGGAUGGCUAUAAUGGGUAUGGAGGAGGACCUGGAGGUGGCAA | 0.24 |

Series 4
Target: RNA binding protein fox-1 homolog 2, RRM domain, GST-SBP tag (RBFOX2, Homo sapiens, UniProt O43251-10, residues 100-194)
Method: RNA Bind-n-Seq
Molecule type: RNA
Medium: in vitro
Concentration: 365 nM
Notes: natural RNA segment, single round, ends assumed
Relative to: no-protein control
Direction: higher = stronger binding
Constant ends, left off below: GGGAGUUCUACAGUCCGACGAUC … UGGAAUUCUCGGGUGCCAA
Construct (chain): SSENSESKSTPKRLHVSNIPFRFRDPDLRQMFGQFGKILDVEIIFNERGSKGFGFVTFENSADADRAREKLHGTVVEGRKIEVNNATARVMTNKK
| Oligonucleotide | RBNS enrichment (R) |
| --- | --- |
| UGGCCGUCAGCACCCCUCCUUUCCCCAAGGUGAAAUGGAGGGUGCUGUGGGGGCCUGCCCACUCCAUGGCAGUGCCCUGAAGGAGUCAGACUACCAUGGCAUCGCAGGCC | 0.252 |
| UGUUAACCUUUAUGUCAGCCAUCGUCAGUUUCAACAUCUAGACCUAAAUAGAAAGUUAGCUGUUCCGCAGACAGGCGUAGUCUUGAGUGUCCUGUGUGGUCAGUGGCAGU | 1.3 |
| AUUGUUGUAUGGUCUCAAAUCCCAAGAUUUAAAUCACUUACCUAUUUAAUUGUGGAAAAUGAUUAUGAAGAACAUGUGUAUUUCUAUCUGGUAGUGAUGUAUAUUUUACA | 0.403 |
| CUCCCAGUAGUAGACCUGUGGUACCUAACGGCGUAUCAGGGCAUGCUGGUAUCACAAGACCCUGAUACACAUUUCAGUGUUCCUAGCCCUUCUUGUCCUCCCUACCCUAA | 0.52 |
| CACUAACAAAGGGGGCUUUUCUUCCAUAGUCUAUUCUGUAUAAAUAAUAAGUUGCCUGUUCCAGAAGUCUAACCCUAACCCCUCUGGUUGUCUGGGACCCCUUUCUGUGC | 1.22 |
| ACUGGAGUUAAUUGCCCAUUUGGGCUCUUUGUAUAAUUAUGGCAAAGUAGACAUUUAUGUUCUAAUUAAUAUGAUUACAGAGAAGGCUUUUUCUCAGGUCAGGCUUUUCA | 0.262 |
| UCCCAUCCUGGGGCAGCACUCCCCAGAGCUGUGCCAGCAGGGGGGCUGUGCCAACCUGUUCUUAGAGUGUAGCUGUAAGGGCAGUGCCCAUGUGUACAUUCUGCCUAGAG | 0.177 |
| AUAUGAAAUGCUAUGUAAAGUUUUCUAUGUAAAAAAAUAUUAUGUAUAAUACUGUUAAAUACCCCAUGCUUUGAUCAGGUGGAAAAAAUCAAUAAAGUUUUAAAAAGUAA | 0.988 |
| CAAAUGGAGUCCUUUUGUAUUACUCUCUAUGGGAUAGCACAAGAUAGCUCUGUAGGAUAGUCUCAGUUACUAGGGUAAUUUCUCAAUGAAGCACAUGCCUGUUUACGAUU | 1.28 |
| UUUUUCUGCCAAAAGGAGCCUACAUUUAUAAUGCACUUAUUGAAUUCAUUAGGGGCGAAUAUAGGAAAAGAGGAUUCCAGGAGGUAGUCACCCCAAACAUCUUCAACAGC | 0.783 |
| AGCUAACCCUAAGGUUUCCUAGCUGUGGGAAGAGGUGAGUUCUUUGAGACCUCCGGCCUUAGGAAGUUGCUUCCAUUAGGAAAUGCCUUUCUGAUCCCAGGAGCUCAGCU | 0.187 |
| AGGGUGCCCAGGUCCUCGGAGCUUUGGCUUGGCAUCUUGGGUUCAUUUGAUUUUUUUUUUUAAAGAGUGUAGUAUUGAGAUUUUAGAGUUCUCGUUUUCAUGAUUCUUGU | 1.07 |

Series 5
Target: Interferon regulatory factor 7, full length, phosphomimetic (IRF7, Homo sapiens, UniProt Q92985, residues 1-503, S471D/S472D/S475D/S476D/S477D/S483D/S484D/S487D)
Method: protein-binding microarray
Molecule type: double-stranded DNA, one strand shown
Medium: in vitro
Concentration: 2200 nM top
Notes: 60-bp whole probe
Together with: salmon DNA 0.4 mg/ml
Relative to: random background probes
Direction: higher = stronger binding
Constant ends, left off below: GCCTAGCAC … GTCTTGATTCGCTTGACGCTGCTG
Construct (chain): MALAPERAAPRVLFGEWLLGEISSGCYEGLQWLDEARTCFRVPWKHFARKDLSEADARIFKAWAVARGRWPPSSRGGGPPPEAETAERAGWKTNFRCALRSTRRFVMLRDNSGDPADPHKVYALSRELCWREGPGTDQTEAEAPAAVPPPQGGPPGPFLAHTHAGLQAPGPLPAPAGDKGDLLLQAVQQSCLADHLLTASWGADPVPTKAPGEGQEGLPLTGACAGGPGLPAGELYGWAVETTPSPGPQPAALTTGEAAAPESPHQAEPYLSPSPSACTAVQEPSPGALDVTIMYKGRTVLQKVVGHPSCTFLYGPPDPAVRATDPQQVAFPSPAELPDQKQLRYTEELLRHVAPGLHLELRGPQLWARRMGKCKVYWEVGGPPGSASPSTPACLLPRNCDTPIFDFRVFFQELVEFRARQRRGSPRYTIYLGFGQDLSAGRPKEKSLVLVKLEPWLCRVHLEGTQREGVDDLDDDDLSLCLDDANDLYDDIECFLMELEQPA
| Oligonucleotide | fitted relative affinity [z-score] |
| --- | --- |
| GGGAACTTAAACCTCTAAAGGTGCTAG | -0.968 |
| TCACTTTCCTTCTTGATACTGTGCTAG | 5.82 |
| TTAGGTATCGGGACTGGGTAAGTGCTA | -0.468 |
| GTAGATATCGGGTTTCGATTAGTGCTA | 2.71 |
| TTAGGATTGGACACTGGGTTAGTGCTA | -0.379 |
| ATAGATCTCAGTTTCGATTAGTGCTAG | 6.33 |
| TGGGTTGTAGGTTTTCTGAAGGTGCTA | 0.284 |
| GACGGTATCGGGTTTCGGGCCGTGCTA | 0.661 |
| TTAGGTTTCCGACTGGGTTAGTGCTAG | 1.07 |
| TTAGATATCAGTTTCGATGAGTGCTAG | 2.22 |
| TTAGATATCAGTTTCGGTTAGTGCTAG | 7.7 |
| TGCTTCCTCTTTTTTGTTCCGTGCTAG | 3.07 |
| GACGATTTCAGTTCCGAGGCGTGCTAG | 1.67 |
| TATGCTTTCTTTAACTCATTGTGCTAG | 1.48 |
| TTAGGACTGGACTATCGGTTTGTGCTA | 0.734 |
| TTCATTATTGCTTCCTCTTTGTGCTAG | 2.67 |
| GACGGACTGGACACTGGGGCCGTGCTA | -0.83 |
| TTAGGACTGGACATTGGGTTAGTGCTA | -0.481 |
| TCAGGTCTCTTGTTCTCACTGTGCTAG | 1.29 |

For quick reference, copied from above (series 2):
| Oligonucleotide | E-score |
| --- | --- |
| CTAAAAGA | -0.249 |
| CCTTTTAC | -0.0874 |
| AACCATAG | -0.0136 |
| GGCGCCAC | 0.322 |
| ATCCAACC | -0.138 |
| CTGCCGTA | 0.303 |
| CTACGAAC | -0.132 |
| CGGATATA | 0.147 |
| CCGTGGGA | 0.114 |
